Measurements pooled from the literature.
Lines come from different studies, so protocols differ. Several values in a cell are separate wells, animals, samples, runs or records. ± marks the error that the study gave.

SMILES	target or system	assay	test system	conditions	how to read	quantity	result
CC(C)[C@@H]1NC(=O)CNC(=O)[C@H](CC(N)=O)NC(=O)[C@H](CCCNC(=N)N)NC(=O)[C@H](Cc2ccc(O)cc2)NC(=O)[C@H](C(C)C)NC(=O)[C@@H](NC(=O)[C@@H](NC(=O)[C@H](CC(N)=O)NC(=O)[C@H](Cc2c[nH]c3ccccc23)NC(=O)[C@H](C)NC(=O)[C@H](Cc2ccccc2)NC(=O)CNC(=O)[C@H](CCCCN)NC(=O)[C@H](Cc2ccccc2)NC(=O)[C@H](Cc2ccccc2)NC(=O)[C@H](CCCCN)NC(=O)OCC2c3ccccc3-c3ccccc32)C(C)C)CSSC[C@@H](C(=O)N[C@@H](Cc2c[nH]cn2)C(=O)N[C@@H](CCCNC(=N)N)C(=O)N[C@@H](CCCNC(=N)N)C(=O)N[C@@H](C)C(=O)N[C@@H](CC(N)=O)C(N)=O)NC(=O)[C@H](C(C)C)NC(=O)[C@H](CCCNC(=N)N)NC1=O	–	–	ICR mouse, blood	intramammary, 5 mg/kg, day 5, 3 d dosing	–	eosinophils	2.42 ± 0.22%
CSCC[C@H](NC(=O)CNC(=O)[C@H](CCCCN)NC(=O)[C@H](CC(C)C)NC(=O)[C@@H]1CCCN1C(=O)[C@H](CO)NC(=O)[C@H](Cc1c[nH]cn1)NC(=O)[C@H](Cc1c[nH]c2ccccc12)NC(=O)[C@H](CCCNC(=N)N)NC(=O)[C@H](CC(C)C)NC(=O)[C@H](CCCNC(=N)N)NC(=O)[C@H](Cc1c[nH]c2ccccc12)NC(=O)[C@H](CS)NC(=O)CCCCCNC(=O)CN1CCN(CC(=O)O)CCN(CC(=O)O)CCN(CC(=O)O)CC1)C(=O)O [copper-64 labelled]	–	ex vivo biodistribution	male C57BL/6J mice, kidney	intravenous, 1.85 MBq, 18 h, B16-F10 tumour-bearing	–	tissue uptake	7.58 %ID/g
CC[C@H](C)[C@H](NC(=O)[C@H](CCCCN)NC(=O)CNC(=O)[C@H](CC(C)C)NC(=O)[C@H](Cc1ccccc1)NC(=O)[C@H](CCCCN)NC(=O)[C@H](CO)NC(=O)[C@H](Cc1ccccc1)NC(=O)[C@H](Cc1c[nH]c2ccccc12)NC(=O)[C@H](CCC(N)=O)NC(=O)[C@@H](NC(=O)[C@H](Cc1ccccc1)NC(=O)CCCCCNC(=O)CN1CCN(CC(=O)O)CCN(CC(=O)O)CCN(CC(=O)O)CC1)C(C)C)C(=O)N[C@@H](CCC(=O)O)C(=O)N1CCC[C@H]1C(=O)N[C@H](CC(=O)O)C(=O)N[C@H](C(=O)N[C@@H](CO)C(=O)N[C@@H](CCC(N)=O)C(=O)N[C@H](C(=O)N[C@@H](CCC(N)=O)C(=O)N[C@@H](CC(=O)O)C(=O)N1CCC[C@H]1C(=O)N[C@@H](CC(N)=O)C(=O)N[C@@H](CC(=O)O)C(=O)N[C@@H](CCC(N)=O)C(=O)N[C@@H](Cc1ccc(O)cc1)C(=O)N[C@@H](CCC(=O)O)C(=O)N1CCC[C@H]1C(=O)N[C@@H](Cc1ccccc1)C(=O)O)C(C)C)C(C)C [copper-64 labelled]	–	–	female mice, EMT6 tumour-bearing, kidneys	2 h, uncleavable control tracer, checkpoint inhibitor-treated	–	tissue uptake	41.7 ± 5.17 %ID/g
CC(C)C[C@@H](NC(=O)[C@@H](CCCNC(=N)N)NC(=O)[C@@H](Cc1c[nH]cn1)NC(=O)[C@@H](Cc1c[nH]c2ccccc12)NC(=O)[C@@H](Cc1c[nH]cn1)NC(=O)[C@@H](Cc1ccccc1)NC(=O)[C@H](NC(=O)[C@@H](Cc1ccc(O)cc1)NC(=O)CNC(=O)CNC(=O)CCOCCOCCOCCNC(=O)CN1CCN(CC(=O)O)CCN(CC(=O)O)CC1)[C@H](C)O)C(=O)N[C@H](CC(N)=O)C(=O)N1CCC[C@@H]1C(=O)O [gallium-68 labelled]	–	–	C57BL/6 mice, male	intravenous, 1.85 MBq, 30 min	relative to: tumour over blood	tissue ratio	2.38 ± 0.53
CN1Cc2cc(Cl)ccc2-n2c(nnc2C2CCN(c3cccc([18F])n3)CC2)C1	–	PET two-tissue compartment model	rhesus monkey, occipital cortex	intravenous, dose not given, 100 min scan, baseline scan	–	total volume of distribution	1.1 ± 0.47 mL/cm3
CC[C@H](C)[C@H](NC(=O)[C@H](C)NC(=O)CNC(=O)[C@H](Cc1c[nH]cn1)NC(=O)[C@@H](NC(=O)[C@H](Cc1ccccc1)NC(=O)[C@H](CCCCN)NC(=O)CNC(=O)[C@H](C)NC(=O)[C@H](CCCCN)NC(=O)[C@H](Cc1ccccc1)NC(=O)[C@@H](NC(=O)[C@H](Cc1c[nH]cn1)NC(=O)[C@H](CCCCN)NC(=O)[C@H](Cc1ccccc1)NC(=O)[C@@H](NC(=O)[C@H](CO)NC(=O)CNC(=O)[C@H](Cc1c[nH]c2ccccc12)NC(=O)CNC(=O)[C@H](C)N)[C@@H](C)CC)[C@@H](C)CC)[C@@H](C)CC)C(=O)N[C@@H](CCC(N)=O)C(=O)N[C@@H](C)C(=O)N[C@@H](Cc1c[nH]cn1)C(=O)N[C@@H](CC(N)=O)C(=O)N[C@@H](CC(=O)O)C(N)=O	–	–	zebrafish embryos 4 hpf, E3 medium	1 h	–	acute toxic concentration	25 µM
CCCCCCCCCCCCCCCC(=O)N1CCN(C(=O)C2CCNCC2)CCN(C(=O)C2CCNCC2)CC1	–	dynamic light scattering	deionized water	128 µg/mL, 25 °C, intensity average	–	hydrodynamic diameter	355 nm
CC(C)[C@H](NC(=O)[C@@H](NC(=O)[C@H](CCCNC(=N)N)NC(=O)[C@H](CCCNC(=N)N)NC(=O)[C@H](CCCNC(=N)N)NC(=O)[C@H](CCC(N)=O)NC(=O)[C@H](CCCNC(=N)N)NC(=O)[C@H](CCCNC(=N)N)NC(=O)[C@H](CCCCN)NC(=O)[C@H](CCCCN)NC(=O)[C@H](CCCNC(=N)N)NC(=O)CN)[C@@H](C)O)C(=O)N[C@H](C(=O)N[C@@H](CO)C(=O)N1CCC[C@H]1C(=O)O)[C@@H](C)O	–	–	ICR mouse, male, right kidney	intranasal, 5 mg/kg daily, 4 weeks	–	kidney weight	0.33 ± 0.07 g
C/C(=N\OCCCN1CCCCC1)c1ccc(C(F)(F)F)cc1	–	–	rhesus monkey	dose not given, after dosing	–	PR interval	72 ms and 60 ms
O=C1NC2(CC2)COc2ncc(F)cc2[C@H]2COCCN2c2ccn3ncc1c3n2	–	–	Sprague-Dawley rat, female, serum	oral, 2.5 mg/kg/day, end of recovery, 4-week subacute toxicity	–	serum sodium	144 ± 1 mmol/L
CCn1ccc(-c2cc([C@@H](C)NC(=O)c3cc(N4CCN(C)CC4)ccc3C)c3ccccc3n2)n1	Vero E6	–	–	15.62 µM	–	viability	59% and 53.9% and 50.7%
CCCCCCCCCCCCCCCC(=O)N[C@@H](CCC(=O)NCCOCCOCCC(=O)NCCOCCOCCC(=O)NCCCC[C@H](NC(=O)[C@H](CC(=O)O)NC(=O)[C@H](CC(C)C)NC(=O)[C@H](Cc1ccc(O)cc1)NC(=O)[C@H](CCCCN)NC(=O)[C@H](CO)NC(=O)[C@H](Cc1ccc(O)cc1)NC(=O)[C@H](CC(=O)O)NC(=O)[C@H](CO)NC(=O)[C@@H](NC(=O)[C@H](Cc1ccccc1)NC(=O)[C@@H](NC(=O)CNC(=O)[C@H](CCC(N)=O)NC(=O)[C@@H](CO)NC(=O)[C@@H](N)Cc1c[nH]cn1)[C@@H](C)O)[C@@H](C)O)C(=O)N[C@@H](CCCNC(=N)N)C(=O)N[C@@H](CCCNC(=N)N)C(=O)N[C@@H](C)C(=O)N[C@@H](CCC(N)=O)C(=O)N[C@@H](CC(=O)O)C(=O)N[C@@H](Cc1ccccc1)C(=O)N[C@H](C(=O)N[C@@H](CCC(N)=O)C(=O)N[C@@H](Cc1c[nH]c2ccccc12)C(=O)N[C@@H](CC(C)C)C(=O)N[C@@H](CC(C)C)C(=O)N[C@@H](CC(N)=O)C(=O)N[C@H](C(=O)NCC(=O)NCC(=O)N1CCC[C@H]1C(=O)N[C@@H](CO)C(=O)N[C@@H](CO)C(=O)NCC(=O)N[C@@H](C)C(=O)N1CCC[C@H]1C(=O)N1CCC[C@H]1C(=O)N1CCC[C@H]1C(=O)N[C@@H](CO)C(N)=O)[C@@H](C)O)C(C)C)C(=O)O	–	–	rhesus monkey, plasma	subcutaneous, 20 µg/kg	–	bioavailability	22%
Cc1ccc(N(C)C2CN(C)C2)cc1C(=O)N[C@H](C)c1cc(-c2cnn(C)c2)nc2ccccc12	Vero E6	–	–	15.62 µM	–	viability	89.7% and 91% and 87.7%
CC(C)[C@H]1NC(=O)[C@@H](C)NC(=O)[C@@H](C(C)C)NC(=O)[C@@H](Cc2ccccc2)NC(=O)[C@@H](C(C)C)NC(=O)[C@@H]([C@H](C)O)NC(=O)[C@@H](Cc2ccc(O)cc2)NC(=O)[C@@H](CCCNC(=N)N)NC(=O)[C@@H]2CCCC[C@H]2NC(=O)[C@@H](CO)NC(=O)[C@H](Cc2ccc(O)cc2)NC(=O)CSC[C@@H](C(=O)NCCOCCOCCOCCOCCOCCOCCC(N)=O)NC(=O)[C@@H](CO)NC(=O)[C@@H](C(C)C)NC(=O)[C@@H](Cc2ccc(O)cc2)NC1=O	–	–	simulated gastric fluid	pH 1.3, 37 °C, with: pepsin	–	stability time	≥ 12 h
CC(=O)NCCCC[C@@H]1NC(=O)[C@H](Cc2c[nH]c3c(C)cccc23)NC(=O)[C@H]([C@@H](C)O)NC(=O)[C@H](CC(N)=O)NC(=O)[C@@H](NC(C)=O)C(C)(C)SSC(C)(C)[C@@H](C(=O)N[C@@H](Cc2ccc(OCCN)cc2)C(=O)N[C@@H](Cc2ccc3ccccc3c2)C(=O)NC2(C(=O)N[C@@H](CCC(=O)O)C(=O)N[C@@H](CC(N)=O)C(=O)N[C@@H](Cc3cccnc3)C(=O)N(C)CC(N)=O)CCOCC2)NC1=O	–	equilibrium dialysis	albumin plus glycoprotein	1 µM, albumin 4%, glycoprotein 0.07%	–	protein binding	37.1 ± 3.7%

Excerpt of the above:
SMILES	target or system	assay	test system	conditions	how to read	quantity	result
CC(C)[C@H](NC(=O)[C@@H](NC(=O)[C@H](CCCNC(=N)N)NC(=O)[C@H](CCCNC(=N)N)NC(=O)[C@H](CCCNC(=N)N)NC(=O)[C@H](CCC(N)=O)NC(=O)[C@H](CCCNC(=N)N)NC(=O)[C@H](CCCNC(=N)N)NC(=O)[C@H](CCCCN)NC(=O)[C@H](CCCCN)NC(=O)[C@H](CCCNC(=N)N)NC(=O)CN)[C@@H](C)O)C(=O)N[C@H](C(=O)N[C@@H](CO)C(=O)N1CCC[C@H]1C(=O)O)[C@@H](C)O	–	–	ICR mouse, male, right kidney	intranasal, 5 mg/kg daily, 4 weeks	–	kidney weight	0.33 ± 0.07 g
